Experimental data of several laboratories.
Every numbered part comes from another study and shows a few of its results, in no order.

Block 1 — technique: RNA Bind-n-Seq; molecule type: RNA; medium: in vitro; tested at: 365 nM; relative to: no-protein control; direction: higher = stronger binding
Target: RNA binding protein fox-1 homolog 2, RRM domain, GST-SBP tag (RBFOX2, Homo sapiens, UniProt O43251-10, residues 100-194)
Notes: natural RNA segment, single round, ends assumed
All sequences stand within: GGGAGUUCUACAGUCCGACGAUC … UGGAAUUCUCGGGUGCCAA
Construct (chain): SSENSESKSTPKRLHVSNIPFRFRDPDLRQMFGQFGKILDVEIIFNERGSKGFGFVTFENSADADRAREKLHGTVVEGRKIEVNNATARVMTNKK
Oligonucleotide	RBNS enrichment (R)
AAGUUUAUAAAACAAUUUGCCAUAGGCAAAGCCAUUUAAAAAGUUCAUUCUGAAAUUAUUUCAUUUACCUACAGUGAAAUAAUUGUGAACUAAGUAGUCUUUCUGAAAAC	0.35
ACAUAGUGGGCCUUCAUUAAAUGUUUGUUGAAUAAAAGAGGGAAGAAGGCAAGCCAACCUUAGCUACAAUCCUACCUUUUGAUAAAAUGUUCCUUUUGACAAUAUACACG	0.289
GAAUGCUGAAAAGUGGCUCAGAUGCAGAGUGUUCUGUGGAGAAACUGCAGCCCCACUUCUGUUUCCCUGGAGUCUCCCAAUGGAUCAUUCAGGAGUGUCCUAUGUGAGAA	1.33
CCACCUGCAUUCCUGAGGAACUCUUGUUUACUGGUGCUGUGGCUCACAGGUCCCCCUCUGUGCCCUCCUUCAGCUUCCAGGCCAGACUUAGUAGAUAAAUAGUAAUAAUA	0.544
CUCAGGUUCUUUCCAUGCAGACUCCUCAGAUCUGAACACAGUUUAGUGCUUUACAUGCUGUGCUCUUUGAAGAGAUUUCAACAAGAAUAUUGUAUGUUAAAGCAUCAGAG	0.244
UCCAUUUAUCCACAGGAAAGUGUUAUUUUUCAAGGAAGGUUCAUGUAGAGAAAAGCACACUUGUAGGAUAAGUGAAAUGGAUACUACAUCUUUAAACAGUAUUUCAUUGC	0.551
UGGACUCCAGCCCUUCAGGAGGCAAGAGGAAAAAAGUGCUCUCGGUUCCCCAGGGGAUCUCUGGGAAAGACACUACCGCAGCCACCGGACUCUUGGCGGAUCGGUCCAGU	0.331
UAUGCAGAGUGGAUAUCUGGGUGGGUUGGGCCACAAGAUUGGAUUUUGGUUCCACUUGGACAACAAACAGUAUUUGCAGAGUGAUUUCAGGAGAGAGCAGGUCUGAGGAA	0.67

Block 2 — technique: protein binding microarray; molecule type: double-stranded DNA, one strand shown; medium: in vitro; tested at: not given; relative to: not given; direction: higher = stronger binding
Target: Histone acetyltransferase KAT6A, winged helix 2, GST fusion (KAT6A, Homo sapiens, UniProt Q92794, residues 85-181)
Notes: 8-mer, flanks averaged, mean of 2 arrays, mostly near background
Construct (chain): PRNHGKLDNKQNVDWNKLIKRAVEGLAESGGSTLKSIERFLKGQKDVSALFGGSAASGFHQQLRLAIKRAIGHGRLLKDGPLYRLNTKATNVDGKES
Oligonucleotide	E-score
AATTGCGT	0.0444
ATTAGAAA	0.0681
CGGTGGGA	0.00507
AAGCCGAG	0.015
CGCAAACC	0.218
TCACTTCA	-0.0862
AATCTAAT	-0.0628
CGCATGAG	-0.0391
ATGTTTAG	-0.024
CACGGAAA	-0.000275
AGTACGAT	-0.00302
GACGTCAC	-0.184
ATCACTTA	-0.0422
AAGGATAG	-0.133
CGCGTGCC	0.0703
CCTCTGTA	-0.0852
GGCATGCA	0.0794
CACCCGCG	0.217
CCGATACA	-0.0695
ACGCGGAG	0.0237

Block 3 — technique: aptamer microarray, sandwich; molecule type: DNA with 2'F-ANA; medium: in vitro; tested at: 200 nM; together with: Cy3 exosite-II aptamer, 400 nM; direction: higher = stronger binding; oligonucleotide: GGTTGGTGTGGTTGG
Target: Prothrombin, mature alpha-thrombin (F2, Homo sapiens, UniProt P00734)
Notes: whole 15-mer aptamer, many near background
Modification	mean fluorescence intensity [a.u.]
2'F-ANA at 3 4 5 6 10 11 14 15	47.8
2'F-ANA at 2 3 4 6 7 10 11 13 14	139
2'F-ANA at 2 4 5 6 14 15	46.7
2'F-ANA at 1 4 5 6 8 9 11 12	97.5
2'F-ANA at 1 2 6 11 12 13	212
2'F-ANA at 2 4 5 9 10 11 12 13	57.2
2'F-ANA at 4 6 7 8 9 12 15	507
2'F-ANA at 1 3 4 5 6 8 9 10 11 13 15	49.6
2'F-ANA at 1 2 4 6 7 8 9 13 14 15	61.9
2'F-ANA at 2 4 5 6 7 9 10 11 14	44.4
2'F-ANA at 3 4 6 8 9 12 13 14 15	246
2'F-ANA at 2 3 4 5 6 7 8 14 15	51.7
2'F-ANA at 1 2 3 5 6 8 9 11 12 13 15	74.9
2'F-ANA at 6 9 10 11 12	170
2'F-ANA at 2 3 6 8 9 10 11 12 13 14	232
2'F-ANA at 1 2 4 5 8 10 11 12 13	48.3
2'F-ANA at 2 4 6 8 9 12 13	317
2'F-ANA at 3 5 7 9 11 14 15	52.1
2'F-ANA at 1 3 4 5 6 8 9 10 11 14 15	71.1
2'F-ANA at 3 4 8 9 11 12 15	792
2'F-ANA at 1 2 5 7 9 10 11 12 14 15	46.8
2'F-ANA at 1 3 4 11 13 14 15	71.9
2'F-ANA at 4 5 7 8 9 10 12 13 15	65.3

Block 4 — technique: RNA Bind-n-Seq; molecule type: RNA; medium: in vitro; tested at: not given; notes: RNA with constant flanks, ends assumed; relative to: input RNA pool; direction: higher = stronger binding
Target: RING finger protein unkempt homolog, zinc fingers 1-6, GST-SBP tag (UNK, Homo sapiens, UniProt Q9C0B0, residues 30-357)
All sequences stand within: GGGAGUUCUACAGUCCGACGAUC … CAACAGAGGAUUGAGCAUCA
Construct (chain): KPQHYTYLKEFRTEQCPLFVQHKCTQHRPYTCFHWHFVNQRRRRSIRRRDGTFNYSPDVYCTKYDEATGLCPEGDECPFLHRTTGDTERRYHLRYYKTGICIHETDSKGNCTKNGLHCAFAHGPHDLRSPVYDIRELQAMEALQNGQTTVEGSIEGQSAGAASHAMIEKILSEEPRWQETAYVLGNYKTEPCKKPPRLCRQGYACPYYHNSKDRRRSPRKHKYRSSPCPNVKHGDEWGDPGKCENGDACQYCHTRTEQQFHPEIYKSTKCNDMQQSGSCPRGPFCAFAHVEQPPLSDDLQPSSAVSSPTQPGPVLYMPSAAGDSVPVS
Oligonucleotide	bound/input enrichment [ratio]
CAAGUACAUCUUGGUGUCAGUGAUGAUCUUGGGUUGCUUGCUCACAUGACUGCGAGUGCCGAGUUAACGUGCACAUCAAGCAUAAUGGAAGAGAAAGACUUCAGAAUUCAUACGACGUCA	0.0992
AUGGGCUUUCAUGUAAUCUAUAAGACACCCUGUGGUCUCUGCCUUCGGACGAUGCAGGAGACCGAGCGCUACCUUUUUGAGACUGGCUGUGACUUUCUGUUCCUGGAGAUGUUCUGUUUG	0.461
CCUAAGCAUCAGGCAGAAGUCCCAUUGGACCUGAAUGAGAGGGUUCCUUCCUGGCAGCUAUUCCGCUUUCCCAUGGAGGACAGUUAUGGGACCAGCUCAGCUCCUCUUGGCUUGAUAGCU	0.147
UUCCUGUUACCUUGAAAAAAUAAAAAUGUUAACAGGAAUGCAGUGUGCUCAUUCUCCCUAAACCGUAAAUCCCACUGUAUACAAAACUGUUCUCUUGUUCUGCCUUUUAAAAUGUUCAUG	0.208
UCUGCUCGAAGACUGGACCCAGAGUACUGGAAGACCAUCCUGAGUUGUGUAUAUGUUUUUACCGUAUUUGGGUUUACGUCUUUCAUUAUGGUUAUUGUUCAUGAGCGUGUGCCUGACAUG	0.128
CUUUUGCAGUUUGACACUAAGAUAACUUCUGUGUGCAUUUUUCUAUGCUUUUUUAAAAACCCGUUUCAUUUCAUUUUCAUGAGAUGUUUGGUUUAUAAGAUCUGAGGAUGGUUAUAAAUA	0.167
CUCCUCCGUACUUCUCUCUGAAAGGAAUUUUGUCGUGUUAACCCUAAAGAGAGUGUCCUUAACCGCAGUGAGCGCUUGGAAGCUUCUCCACUGGUACAUUGGGUUUUCUGUUGGGUGAGU	0.244
GGGGUUCAGGGUGAGGAGAGCGCGGAGGGACUGUGUCCCAGUUGGUGGUGUGUGGGGUCUAUCCGUCUCAUCCAUGUCUGUUUGUCCUCAGCCCUGAGGUGCGCACCGAUAUCGAUAUUC	0.139

A few entries again (block 3):
Modification	mean fluorescence intensity [a.u.]
2'F-ANA at 4 6 7 8 9 12 15	507
2'F-ANA at 1 3 4 5 6 8 9 10 11 13 15	49.6
2'F-ANA at 1 2 4 5 8 10 11 12 13	48.3
2'F-ANA at 1 2 4 6 7 8 9 13 14 15	61.9
2'F-ANA at 3 4 6 8 9 12 13 14 15	246
2'F-ANA at 1 2 3 5 6 8 9 11 12 13 15	74.9
2'F-ANA at 1 2 6 11 12 13	212
2'F-ANA at 3 4 5 6 10 11 14 15	47.8
